Assay results collected from several papers.
Each line is one published result; not all experiments were run side by side. In brackets after ≈: the same amount, converted by molar mass.
Organism: Enterococcus faecium

`CN[C@H](CC(C)C)C(=O)N[C@H]1C(=O)N[C@@H](CC(N)=O)C(=O)N[C@H]2C(=O)N[C@H]3C(=O)N[C@H](C(=O)N[C@H](C(=O)O)c4cc(O)cc(O)c4-c4cc3ccc4O)[C@H](O)c3ccc(c(Cl)c3)Oc3cc2cc(c3O[C@@H]2O[C@H](CO)[C@@H](O)[C@H](O)[C@H]2O[C@H]2C[C@](C)(N)[C@H](O)[C@H](C)O2)Oc2ccc(cc2Cl)[C@H]1O` has an MIC of over 64 µg/mL (broth microdilution; 35682).
The MIC50 of `CN[C@H](CC(C)C)C(=O)N[C@H]1C(=O)N[C@@H](CC(N)=O)C(=O)N[C@H]2C(=O)N[C@H]3C(=O)N[C@H](C(=O)N[C@H](C(=O)O)c4cc(O)cc(O)c4-c4cc3ccc4O)[C@H](O)c3ccc(c(Cl)c3)Oc3cc2cc(c3O[C@@H]2O[C@H](CO)[C@@H](O)[C@H](O)[C@H]2O[C@H]2C[C@](C)(N)[C@H](O)[C@H](C)O2)Oc2ccc(cc2Cl)[C@H]1O` is reported as 1 µg/mL (≈ 0.69 µM) (Enterococcus faecium; 40 strains).
The MIC of `Cc1ccc(CCC(=O)Nc2nnc(S(N)(=O)=O)s2)cc1` is reported as 0.184 µM (NR-31933).
With `CC(=O)NC[C@H]1CN(c2ccc(N3CCOCC3)c(F)c2)C(=O)O1` the ED50 was 24.7 mg/kg (-30 vancomycin-intermediate, mice, systemic infection; intravenous, 2 and 8 h post-infection, survival over 7 days).
`CC1(C)S[C@@H]2[C@H](NC(=O)[C@H](N)c3ccccc3)C(=O)N2[C@H]1C(=O)O` gave an MIC of over 64 µg/mL (broth microdilution; 36711).
`CC(=O)NC[C@H]1CN(c2ccc(N3CCOCC3)c(F)c2)C(=O)O1` has an MIC of 1.48 µM (NR-32094).
For `Cc1c2c(nn1C)CSCc1cc(n(C)n1)CSc1cc(c3ccccc3c1)OCCCc1c(C(=O)O)n(C)c3c-2c(Cl)ccc13`, “number of isolates” read 9 (broth microdilution MIC; 25 µM).
For `CN[C@H](CC(C)C)C(=O)N[C@H]1C(=O)N[C@@H](CC(N)=O)C(=O)N[C@H]2C(=O)N[C@H]3C(=O)N[C@H](C(=O)N[C@H](C(=O)O)c4cc(O)cc(O)c4-c4cc3ccc4O)[C@H](O)c3ccc(c(Cl)c3)Oc3cc2cc(c3O[C@@H]2O[C@H](CO)[C@@H](O)[C@H](O)[C@H]2O[C@H]2C[C@](C)(N)[C@H](O)[C@H](C)O2)Oc2ccc(cc2Cl)[C@H]1O`, the ED50 was 28.6 mg/kg (-30, compound-intermediate, mouse systemic infection; intravenous; survival).
`C/C=C(\C)c1cc(O)c(C)c(OC(=O)c2c(C)c(Cl)c(O)c(Cl)c2O)c1` gave an MIC of 16 µg/mL (broth microdilution; 35682).
The MIC50 of `CC[C@H]1OC(=O)[C@H](C)[C@@H](O[C@H]2C[C@@](C)(OC)[C@@H](O)[C@H](C)O2)[C@H](C)[C@@H](O[C@@H]2O[C@H](C)C[C@H](N(C)C)[C@H]2O)[C@](C)(O)C[C@@H](C)/C(=N\OCOCCOC)[C@H](C)[C@@H](O)[C@]1(C)O` is reported as over 128 µg/mL (agar dilution; vancomycin-intermediate, 25 isolates).
The MIC of `CCCCN(C(=O)Nc1cc(-c2ccc(Cl)c(Cl)c2)sc1C(=O)O)c1ccccc1` is reported as 16 µM (DSM 20477; together with: folic acid 1 µg/mL).
